Measured values of several laboratories.
Lines come from different studies, so protocols differ. Numbers after ± are the reported error.

For CC[C@H](C)[C@H](NC(=O)[C@H](CC(C)C)NC(=O)[C@H](Cc1c[nH]c2ccccc12)NC(=O)[C@H](C)NC(=O)[C@@H](NC(=O)[C@H](Cc1ccccc1)NC(=O)[C@H](CC(=O)O)NC(=O)[C@H](CCCNC(=N)N)NC(=O)[C@H](C)NC(=O)[C@H](C)NC(=O)[C@H](CC(C)C)NC(=O)[C@H](C)NC(=O)[C@H](CC(=O)O)NC(=O)[C@H](CC(C)C)NC(=O)[C@@H](NC(=O)[C@@H](NC(=O)[C@H](C)NC(=O)[C@H](CC(C)C)NC(=O)[C@H](CCC(=O)O)NC(=O)[C@H](CO)NC(=O)[C@H](CO)NC(=O)[C@H](Cc1ccccc1)NC(=O)[C@@H](NC(=O)CNC(=O)[C@H](CCC(=O)O)NC(=O)CNC(=O)[C@@H](N)Cc1cnc[nH]1)[C@@H](C)O)[C@@H](C)O)[C@@H](C)CC)[C@@H](C)CC)C(=O)N[C@@H](C)C(=O)N[C@H](C(=O)N[C@@H](CCCCN)C(=O)N[C@H](C(=O)N[C@H](C(=O)N[C@@H](CC(=O)O)C(=O)N[C@@H](CCCCN)C(=O)N[C@@H](CCCCN)C(=O)N[C@@H](CCCCN)C(=O)N[C@@H](CCCCN)C(=O)N[C@@H](CCCCN)C(=O)N[C@@H](CCCCN)C(N)=O)[C@@H](C)O)[C@@H](C)CC)[C@@H](C)O, the AUClast was 0.000516 µM·h (immunoaffinity LC-MS/MS; healthy human subjects, plasma; subcutaneous, 5 mg once weekly, day 36 after 6 doses, steady state, geometric mean).
CC(C)=CCC[C@](C)(O[C@@H]1O[C@H](CO)[C@@H](O)[C@H](O)[C@H]1O)[C@H]1CC[C@]2(C)[C@@H]1[C@H](O)C[C@@H]1[C@@]3(C)CC[C@H](O[C@@H]4O[C@H](CO)[C@@H](O)[C@H](O)[C@H]4O[C@@H]4O[C@H](CO)[C@@H](O)[C@H](O)[C@H]4O)C(C)(C)[C@@H]3CC[C@]12C gave an AUC(0-inf) of 6.93 ± 11.4 ng·h/mL (LC-MS/MS; healthy male volunteers, serum; oral, 3 g red ginseng).
CCCOc1ccc([C@H]2CNC(=O)N2c2ccc3[nH]cnc3c2)cc1 gave an AUC(0-t) of 8550 ng·h/mL (human, plasma; oral, 800 mg, single dose, fasted, healthy volunteers).
For COc1ccc(Cl)cc1C(=O)NCCc1ccc(S(=O)(=O)NC(=O)NC2CCCCC2)cc1, the thermodynamic solubility was 8.25 ± 0.32 mg/g (shake-flask; PEG400; 37 °C).
C[C@H]1CN(C(=O)CC#N)[C@]12CCN(c1ncnc3[nH]ccc13)C2 — result for “systemic exposure ratio”: ~20 (atopic dermatitis patients, urine; topical, 5 g of 3% ointment; relative to: patients over healthy volunteers).
CCc1ccccc1-c1ccc2c(c1)C1(Nc3ccccc3C(=O)N1c1ccc(C)cc1)C(=O)N2C (stereo not drawn) has a logD of 4.9 (shake flask; aqueous buffer; pH 7.4).
COc1cc(OC)c(/C=C/S(=O)(=O)Cc2ccc(OC)c(NCC(=O)O)c2)c(OC)c1 gave a half-life of 185 ± 131 min (cancer patients, phase I, plasma; oral, 700 mg twice daily, day 1 cycle 1).
For Cc1cccc(Nc2ccccc2C(=O)O)c1C, the thermodynamic solubility was 2.72 ± 0.04 mg/g (shake-flask; Captex 355; 37 °C).
The alpha half-life of Oc1ccc(C(c2ccc(O)cc2)(C(F)(F)F)C(F)(F)F)cc1 is reported as 25.3 min (refers to: free compound; Hsd:Sprague Dawley rat female, plasma; oral gavage, 110 mg/kg single dose).
C=CC(=O)Nc1cc(Nc2nccc(-c3cn(C)c4ccccc34)n2)c(OC)cc1N(C)CCN(C)C: “AEs leading to discontinuation” 11% (refers to: AEs possibly related to any treatment; EGFR-mutant MET-altered NSCLC patients; oral, dose not given, all).
For Cc1cc(-c2cc(OC(=O)c3ccccc3)ccc2Cl)cc2nnc(Nc3ccc(OCCN4CCCC4)cc3)nc12, the tissue concentration was 100 nM (Dutch Belted rabbit, sclera; topical ocular, 40 µL drop of 0.6%, 2 h).
For CCCC[C@@H]1NC(=O)[C@@H](NC(=O)[C@H](CCC(=O)O)NC(=O)CNC(=O)CN2CCN(CC(=O)O)CCN(CC(=O)O)CCN(CC(=O)O)CC2)CCCCNC(=O)C[C@@H](C(N)=O)NC(=O)[C@H](C(C)C)NC(=O)[C@@H]2CCCN2C(=O)[C@H](CCCNC(=N)N)NC(=O)CNC(=O)[C@H](Cc2c[nH]c3ccccc23)NC(=O)[C@H](CCCNC(=N)N)NC(=O)[C@@H](Cc2ccccc2)NC(=O)[C@H](Cc2c[nH]cn2)NC(=O)[C@H](CCC(=O)O)NC1=O [indium-111 labelled], the tissue uptake was 0.06 ± 0.01 %ID/g (normal C57 mice, skin; intravenous, 0.037 MBq, 24 h).
For COc1cc(/C=C/C(=O)CC(=O)/C=C/c2ccc(O)c(OC)c2)ccc1O, “brain uptake ratio” read 6.19 (I-125 label; C57BL/6J mouse, hippocampus; intranasal vs intraperitoneal, 10 µg/mouse IN, 100 µg/mouse IP, 12 h; relative to: intranasal over intraperitoneal).
The QTc change of COc1c(N2C[C@@H]3CCCN[C@@H]3C2)c(F)cc2c(=O)c(C(=O)O)cn(C3CC3)c12 is reported as 0.9 ± 1.7% (male Hartley guinea pig, anaesthetized; intravenous infusion, 1 mg/kg, 10 min infusion; relative to: baseline).
Cc1nc2cccc(OCC(C)(C)C(=O)NC(C)C)c2c(N)c1C(=O)O gave a Cmax of 27.2 ng/mL (Sprague-Dawley rat (both sexes), plasma; dietary, 60 mg/kg/day, day 7).
COc1c(N2C[C@@H]3CCCN[C@@H]3C2)c(F)cc2c(=O)c(C(=O)O)cn(C3CC3)c12 has a QTc change of ~10 ms (healthy adults; oral, 400 mg, 2-9 h post dose; relative to: placebo).
For Clc1ccccc1C(c1ccccc1)(c1ccccc1)n1ccnc1, the thermodynamic solubility was 51.1 ± 3.18 mg/g (shake-flask; polysorbate 80; 37 °C).
With CCCC[C@H](NC(C)=O)C(=O)N[C@H]1CCC(=O)NC[C@@H](C(=O)N[C@@H](Cc2c[nH]c3ccccc23)C(N)=O)NC(=O)[C@H](CCCNC(=N)N)NC(=O)[C@@H](Cc2ccccc2)NC(=O)[C@H](Cc2c[nH]cn2)NC1=O the CL/F was 17.5 mL/min/kg (male rat, plasma; subcutaneous, 1 mg/kg/day, multiple doses, once daily).
COc1ccc2c(c1OC)C(=O)O[C@@H]2[C@H]1c2c(cc3c(c2OC)OCO3)CCN1C has a thermodynamic solubility of 1.91 ± 0.15 mg/g (shake-flask; soybean oil; 37 °C).
The adverse events of COc1ccc2nc([S@@+]([O-])Cc3ncc(C)c(OC)c3C)[nH]c2c1 is reported as 0% (human healthy; 40 mg, folliculitis).
For Cc1cc(-n2c(=O)[nH]c(=O)n(C)c2=O)ccc1Oc1ccc(SC(F)(F)F)cc1, the thermodynamic solubility was 18.3 ± 2.27 mg/g (shake-flask; PEG400; 37 °C).
`des-acyl ghrelin (human)` has a tissue/serum ratio of 8.67 µL/g (wild-type mice, whole brain; intravenous, dose not given, 10 min, vascular space corrected).
COc1cc(F)c(F)c(Nc2ccc(I)cc2F)c1NS(=O)(=O)C1(C[C@H](O)CO)CC1 has an AUC(0-8 h) of 4920 ng·h/mL (human patients, plasma; oral, dose not given, cycle 1 day 15, together with: copanlisib).
N[C@@H](CC(=O)N1CCn2c(nnc2C(F)(F)F)C1)Cc1cc(F)c(F)cc1F gave an AUC(0-2 h) of 507 ± 263 ng·h/mL (healthy Korean subjects, plasma; oral, 100 mg single dose, ABCB1 G2677T/A TT).
For C=CC(N)CCC(=O)O (stereo not drawn), the Tmax (median) was 40.2 min (male Sprague-Dawley rat, plasma; oral, 10 mg/kg, formulation 9, together with: low-fat infant formula 1500 mg/kg).
COc1ccc2c(O[C@@H]3C[C@H]4C(=O)N[C@]5(C(=O)NS(=O)(=O)C6CC6)C[C@H]5/C=C\CCCCN(C)C(=O)[C@@H]4C3)cc(-c3nc(C(C)C)cs3)nc2c1C gave a Papp A→B of 0.19 ×10⁻⁶ cm/s (Caco-2).
CCCCCCCCCCCCCCCCCCOP(=O)([O-])OC1CC[N+](C)(C)CC1 gave an AUC(0-inf) of 2450 ng·h/mL (rhesus monkey, male, cerebrospinal fluid; oral, 7 mg/kg, single dose, mean of 3).
CS(=O)(=O)n1cc2c(n1)CN([C@H]1CO[C@H](c3cc(F)ccc3F)[C@@H](N)C1)C2 has a renal clearance of 36.7 mL/min (male human, urine; oral, 25 mg, single dose, fasted, healthy volunteers).
With COc1ccc([C@@H]2CC(=O)c3c(O)cc(O)cc3O2)cc1O the Papp A→B was 7.28 ×10⁻⁶ cm/s (mass spectrometry; Caco-2; 40 µM, 6 h).
C[C@]12CC[C@@H]3c4ccc(O)cc4CC[C@H]3[C@@H]1C[C@@H](O)[C@@H]2O — result for “minimum serum concentration”: 0 ng/mL (GC-MS; breast cancer women on NSAI, serum; vaginal, 0.03 mg daily, 24 h, day 28).
[2H]C([2H])([2H])NC(=O)c1cc(Oc2ccc(NC(=O)Nc3ccc(Cl)c(C(F)(F)F)c3)cc2)ccn1: “decrease in AUC(0-t)” 54.9% (male Sprague-Dawley rat, plasma; dose not given, not significant, together with: telmisartan multiple doses; relative to: compound alone).
The log P of CC1=CC(c2ccccc2)=NS(=O)(=O)N1 is reported as 1.04 ± 0.02 (HPLC; PVC/DOS polymer film-water; neutral form).
With OC[C@@H](O)[C@@H](O)[C@H](O)[C@H](O)CO the effective permeability was 129 ± 16 ×10⁻⁶ cm/s (equilibrium dialysis; cellulose membrane, cell-free; pH 7.4, together with: 0.1% w/w Pluronic P85).
For C#C[C@]1(CO)O[C@@H](n2cnc3c(N)nc(F)nc32)C[C@@H]1O, the AUC(0-t) was 1.41 µM·h (human, plasma; oral, 15 mg, single dose, fasted).
With COc1cc(C)c(/C=C/C(C)=C/C=C/C(C)=C/C(=O)O)c(C)c1C the thermodynamic solubility was 0.24 ± 0.01 mg/g (shake-flask; Captex 355; 37 °C).
For C/C=C/C=C/C=C/CC/C=C/C(=O)NCC(C)(C)O, the recovery was 0% (rat, small intestine site 4 contents; oral, dose not given, 2 h, β-glucuronidase treated; relative to: ingested amount).

A few entries again:
With COc1cc(C)c(/C=C/C(C)=C/C=C/C(C)=C/C(=O)O)c(C)c1C the thermodynamic solubility was 0.24 ± 0.01 mg/g (shake-flask; Captex 355; 37 °C).
For Clc1ccccc1C(c1ccccc1)(c1ccccc1)n1ccnc1, the thermodynamic solubility was 51.1 ± 3.18 mg/g (shake-flask; polysorbate 80; 37 °C).
CCCCCCCCCCCCCCCCCCOP(=O)([O-])OC1CC[N+](C)(C)CC1 gave an AUC(0-inf) of 2450 ng·h/mL (rhesus monkey, male, cerebrospinal fluid; oral, 7 mg/kg, single dose, mean of 3).
